Measured values of several laboratories.
Each numbered part is a random draw from the data of one study; scales do not carry over between parts. “And” joins repeats or separate records; there may be more than shown.

Study 1
SMILES: CCN1/C(=C/C=C2\CCCC(/C=C/C3=[N+](CC)c4ccccc4C3(C)C)=C2NCCCCCCCCN2CCC(Nc3nc4ccccc4n3Cc3ccc(F)cc3)CC2)C(C)(C)c2ccccc21
Cell line: U-87 MG
Tested at: concentration not given
Relative to: DMSO
refers to | log2 fold change
CLEC20A mRNA | -2.27
NCAPD2 mRNA | -1.56
BTN3A3 mRNA | -1.05
ACAP3 mRNA | -1.05
TMEM164 mRNA | -1.32
ING1 mRNA | 0.868
TBCEL mRNA | 0.937
TMEM39A mRNA | 0.961

Study 2
Structure (SMILES): Cc1ccc(O)c(C)c1-c1cnc2[nH]c(-c3cnc(N)nc3)cc2c1C#N
cell line | effect on | method | refers to | tested at | inhibition
HCC1569 | cell proliferation | – | – | 13.72 nM | -0.56%
HCC1569 | cell proliferation | – | – | 370.37 nM | 54.1%
MKN-1 | cell proliferation | – | – | 123.5 nM | 8.79%
LN-229 | cell proliferation | – | – | 0.5081 nM | 2.42% and -0.318%
HuCCT-1 | cell proliferation | – | – | 370.37 nM | 36.3%
HCC1569 | – | automated capillary immunoblot | CDK1 phospho-Thr14 | 1.37 nM | 10.9%
NCI-H1648 | cell proliferation | – | – | 3.19 nM | -8.13%
HCC1569 | cell proliferation | – | – | 1.52 nM | 1.36%

Study 3
Structure (SMILES): C[C@@H]1CN(c2ccc(-c3cc(C(=O)NCCOCCOCCOCCOCCOCCOCCNC(=O)/C=C/c4[nH]cc(C(=O)N[C@@H](CC(N)=O)c5ccc(F)c(Cl)c5)c4-c4ccc(Cl)cc4F)ccc3F)cc2NC(=O)c2ccc(F)cc2C(F)(F)F)C[C@H](C)N1C
Effect on: thermal unfolding
Method: differential scanning fluorimetry
Tested at: 5.5 µM
Direction: higher = more unfolded
WDR5: WD repeat-containing protein 5 (WDR5, Homo sapiens, UniProt P61964)
DCAF1: DDB1- and CUL4-associated factor 1 (DCAF1, Homo sapiens, UniProt Q9Y4B6)
UniProt Q9Y4B6, sequence (whole entry, looked up): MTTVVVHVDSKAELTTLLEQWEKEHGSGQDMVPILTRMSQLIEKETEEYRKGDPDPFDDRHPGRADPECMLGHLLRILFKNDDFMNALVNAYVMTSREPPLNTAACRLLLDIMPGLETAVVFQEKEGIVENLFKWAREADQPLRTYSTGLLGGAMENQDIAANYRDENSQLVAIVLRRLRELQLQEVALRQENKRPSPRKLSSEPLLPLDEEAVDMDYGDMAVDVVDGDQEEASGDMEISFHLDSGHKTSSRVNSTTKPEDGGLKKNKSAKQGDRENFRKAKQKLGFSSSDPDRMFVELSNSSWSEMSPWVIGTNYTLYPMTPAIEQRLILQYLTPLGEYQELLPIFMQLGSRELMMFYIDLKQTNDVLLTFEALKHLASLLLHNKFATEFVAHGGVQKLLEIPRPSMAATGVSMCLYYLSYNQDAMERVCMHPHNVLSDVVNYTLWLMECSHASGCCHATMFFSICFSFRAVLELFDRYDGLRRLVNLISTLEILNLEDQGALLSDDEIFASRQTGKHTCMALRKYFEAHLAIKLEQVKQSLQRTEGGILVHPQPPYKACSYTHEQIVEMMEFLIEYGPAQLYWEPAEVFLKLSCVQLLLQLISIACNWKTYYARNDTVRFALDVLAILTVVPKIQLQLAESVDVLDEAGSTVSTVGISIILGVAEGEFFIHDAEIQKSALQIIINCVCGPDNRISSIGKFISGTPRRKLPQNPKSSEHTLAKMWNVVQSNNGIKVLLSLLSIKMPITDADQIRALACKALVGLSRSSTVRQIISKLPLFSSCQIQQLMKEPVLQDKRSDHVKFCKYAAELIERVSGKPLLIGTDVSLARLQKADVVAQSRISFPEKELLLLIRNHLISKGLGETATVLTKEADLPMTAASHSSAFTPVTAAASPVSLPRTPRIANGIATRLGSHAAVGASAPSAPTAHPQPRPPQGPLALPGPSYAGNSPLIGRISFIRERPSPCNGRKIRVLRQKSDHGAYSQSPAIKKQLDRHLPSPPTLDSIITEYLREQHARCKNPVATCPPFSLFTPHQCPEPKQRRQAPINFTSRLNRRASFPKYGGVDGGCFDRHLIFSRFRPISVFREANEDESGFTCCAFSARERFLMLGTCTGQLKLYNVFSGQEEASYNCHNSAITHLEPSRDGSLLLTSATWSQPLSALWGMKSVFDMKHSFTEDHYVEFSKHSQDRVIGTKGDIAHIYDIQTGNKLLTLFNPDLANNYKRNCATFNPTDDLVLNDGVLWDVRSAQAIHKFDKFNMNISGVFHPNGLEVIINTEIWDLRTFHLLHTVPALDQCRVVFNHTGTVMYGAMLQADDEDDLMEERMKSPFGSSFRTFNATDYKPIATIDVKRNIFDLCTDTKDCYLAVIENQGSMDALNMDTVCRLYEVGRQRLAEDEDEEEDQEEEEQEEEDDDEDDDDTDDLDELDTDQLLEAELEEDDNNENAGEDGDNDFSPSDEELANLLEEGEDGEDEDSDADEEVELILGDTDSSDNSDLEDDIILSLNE
target | temperature | SYPRO Orange fluorescence [a.u.]
WDR5 | 45.8 °C | 14800
DCAF1 | 29.6 °C | 8270
WDR5 | 50.4 °C | 16500
DCAF1 | 85.81 °C | 35100
WDR5 | 76.01 °C | 52900
DCAF1 | 57.21 °C | 35100
DCAF1 | 76.41 °C | 42600
DCAF1 | 54.41 °C | 25400

Mixed results
SMILES | host | dose | time | together with | endpoint | result
Cn1cc(-c2cccc(CN3CCC4(CC3)COc3c4ccc4c3CN([C@H]3CCC(=O)NC3=O)C4=O)c2)cn1 | Crbn I391V mouse, MC-38 tumour | 30 mg/kg | day 13 | anti-LAG3 antibody 10 mg/kg weekly | tumour volume | 532 mm3 and 336 mm3 and 910 mm3 and 844 mm3 and 298 mm3

A few entries again (study 2):
cell line | effect on | method | refers to | tested at | inhibition
HCC1569 | cell proliferation | – | – | 13.72 nM | -0.56%
HCC1569 | cell proliferation | – | – | 370.37 nM | 54.1%
MKN-1 | cell proliferation | – | – | 123.5 nM | 8.79%
